Assay results from different studies.
Every numbered part comes from another study and shows a few of its results, in no order. Positions count from the first letter of the parent shown.

Series 1
Target: RING finger protein unkempt homolog, zinc fingers 1-6, GST-SBP tag (UNK, Homo sapiens, UniProt Q9C0B0, residues 30-357)
Technique: RNA Bind-n-Seq
Molecule type: RNA
Sample: in vitro
Concentration: not given
Setting: RNA with constant flanks, human-mouse chimeric sites, ends assumed
Reference: input RNA pool
Direction: higher = stronger binding
All sequences stand within: GGGAGUUCUACAGUCCGACGAUC … CAACAGAGGAUUGAGCAUCA
Residues (chain): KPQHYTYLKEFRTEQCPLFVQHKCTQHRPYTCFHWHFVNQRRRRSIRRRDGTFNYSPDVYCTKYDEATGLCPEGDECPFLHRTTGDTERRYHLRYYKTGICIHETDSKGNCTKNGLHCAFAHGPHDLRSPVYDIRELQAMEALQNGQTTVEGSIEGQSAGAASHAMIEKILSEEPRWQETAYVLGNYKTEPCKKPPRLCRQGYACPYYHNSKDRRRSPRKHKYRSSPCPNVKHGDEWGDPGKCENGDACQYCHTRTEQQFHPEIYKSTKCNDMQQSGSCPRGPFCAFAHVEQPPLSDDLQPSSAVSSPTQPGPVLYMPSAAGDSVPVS
Strand	bound/input enrichment [ratio]
UUUCUACUGCAGCAAACGAUGCUAAGAAUUAAGGAUCCUAAGAAGUCACUGGAUUUUUAUACGAGGGUUCUUGGACUGACGCUAAUCCAGAAGCUUGACUUCCCUGCUAUGAAGUUCUCG	0.127
CACGUGUCUGCAGUACUUGAUGUGGACUACUCUCCCACUGGGAAGGAAUUUGUGUCUGCCAGCUUUGAUAAAUCUAUUAGAAUCUUUCCUGUGGACAAAAGUCGAAGCAGGGAAGUGUAU	0.407
GAAUCCUACUCAGGCGGAUUUUGCAACACCAAGCUCAAGUAGCAAUUUCCAUAGUCACAGUAGGGUAGUUUUGGGGCUCUGUGGCCAGGGUUUUAUUCACAUGCAGGUUUGGAAAAUGUA	0.83
UAAAUUAGGGCUGCCGUUUUCUGUUUCUCCCUGGGCUGCGGAAAGCCAGAAGAUUUUAUCUAGCUUAAACCAGGCUGCUGGAGCUUGCUCUUUUUUUCCACGAGGGUGUUUUUGGCUGCA	0.499
GCUCUUGGGAAUGUAAUAAGUGCCUUGGGGGACAAGAGCAAGAGAGCCACCCAUGUCCCUUACAGAGAUUCCAAGCUGACAAGACUCUUGCAGGAUUCCCUUGGGGGUAACAGCCAAACC	0.129
UCAAGGGGGCACUGCAGAGCCAUGCCUUUCCUUGACAUACAGAAAAAGCUGGGCAUCAGCCUGGACCGGCACUUUAUGUUCCUAAGCGCAGAACAGCCCUAUAAGAACGCCGCUCGGUGC	0.0795
CGGAGCCCUCCUCUCCCACAGGCCCAAGAUAUAACCCACCAGUGCCUUUUGUCUUCCUGUCAGCUCUAAUCAAUCAUCCUGUCCUCUGUCCCUCUCACCAAGUGCCCAAAGUGGGGAGGG	0.533
GCUCCUCUUCCGCACUCAGCCUGGGGACACUGGGCUGGGACCAGAAUCCAGCUUUCUUUUAAAACUCUAUAUUUUUUUGUAUCCCGUGACAUUUCAUUUUUUUUAAAUAGUGUAUUUUUU	13.9
CACAGAGGAGAUCUGCUGUUCCUCACGAAUUUCCGGGAGGACCCCAUCAGAGCUGGUGAAAUAGUUGUUUUUAAAGUUGAAGGACGAGACAUUCCGAUAGUUCACAGAGUAAUCAAGGUU	2.56
ACCAUUUUCGCGGUUCAGGCUUUGUGUGUAGUUCACUUACGGUAUUAAAUUAUUAUUCUGCUUAGCUUAUAAUAAGGAUUACAAUUGGAUUUAAGUAUACUGAAUGUUACUCUGAAACUU	0.771
GCUCCUCCCCGCUCUGCCCCUGCCUGCCACUGGGCUGGGACCAGAAUCCAGCUUUCUUUUAAAACUCUCAGUGUAACUGUAUCCCGUUUUUUUCUUUUUUUUUUAAAUAGUGUAUUUUUU	25.3

Series 2
Target: Histone acetyltransferase KAT6A, winged helix 1, GST fusion (KAT6A, Homo sapiens, UniProt Q92794, residues 1-85)
Technique: protein binding microarray
Molecule type: double-stranded DNA, one strand shown
Sample: in vitro
Concentration: not given
Setting: 8-mer, flanks averaged, mean of 2 arrays, mostly near background
Reference: not given
Direction: higher = stronger binding
Construct (chain): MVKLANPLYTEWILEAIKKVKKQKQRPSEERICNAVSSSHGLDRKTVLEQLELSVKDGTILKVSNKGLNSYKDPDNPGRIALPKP
Strand	E-score
CCTTTCAC	0.0111
GTGCGACA	0.153
ATGCAAAA	-0.22
GTCCACAA	-0.292
CACATAGA	-0.231
CGTTCAAC	0.0823
GCCTCACC	0.0993
ACTTCCGC	0.254
CAGTATTC	-0.161
CACAACGG	0.199
GCGGAGCA	0.189
ACGATTGG	-0.116
CTGCCCGA	0.0293
ACCGCTTG	0.124
CAATTCCA	-0.235
ATCACCGC	0.288
AATACGCT	0.137
CCAATTGG	-0.187
ACTCCAGG	-0.0581
GACACATC	-0.109
CACCCGCA	0.212
TCGAGAAA	-0.0433
CCATTCAC	-0.0769
AACCGGAT	0.0664
AAAGAACC	-0.0368

Series 3
Target: RNA binding protein fox-1 homolog 2, RRM domain, GST-SBP tag (RBFOX2, Homo sapiens, UniProt O43251-10, residues 100-194)
Technique: RNA Bind-n-Seq
Molecule type: RNA
Sample: in vitro
Concentration: 365 nM
Setting: natural RNA segment, single round, ends assumed
Reference: no-protein control
Direction: higher = stronger binding
All sequences stand within: GGGAGUUCUACAGUCCGACGAUC … UGGAAUUCUCGGGUGCCAA
Residues (chain): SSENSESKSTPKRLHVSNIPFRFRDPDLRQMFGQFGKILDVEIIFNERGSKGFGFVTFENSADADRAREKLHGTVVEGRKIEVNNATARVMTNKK
Strand	RBNS enrichment (R)
AAGUGAAAAAGAAGAAAUAGAGAAUUCCAGCAGAAUUCAGUGGUUGUCUACUAUCCAUACUUCUUAUCACUUUAGUUUUUCAUCAGUCAAUAAAAUUAAUUUACUCUUCC	0.606
AAACAAUGGUAAGCACUGAAGUAUAAUAAGUAACCUUUGGUACAGCAGGUUUGCUGCAGUGUUUUUUUCUGUCCACAUGCAAAUUUUGGAUUCUAUCCCAGACCCAGGUU	0.309
GCGGAUCUUGUAUUUCGUGCCGGGAUGGGGUUGAGAUAGAGAGUAUAGUGAAGAAGAGUCAAGCGUCAGAUAUAUUCUCCCAGUUGAUCCCAAUAUCUGCCCUAAGUGAU	0.915
UUUGUGUAUGCGAGACAAAUCCUGUAUUGUACAGGAUAUAAAUAGAUGCAUAAAUCCUUAGAUACCUGGGUUUUUUAAUAGGUUUAGGUUUGGGUAUUGUGUUUCUGGUC	0.609
UCCUUUUUUUUAACCAUCUGAUACUAAGAAGAUGAAUUUGCACAGAUUUCUCUGCAUAAUUUCUCAAUAUCUUUAGCACAGUAUGGUGAUGAUGACUUUUAAGCAUUUAC	0.513
UUUGAUUCAACAUCACAAAAAAGAAAAAUUCAGUGGUUCCAGUAAAGAUUUGAAAUUUGUUAAAAUGAGAAAUACCUUUGGAAGCCAUACAUAUGAAAAUCAGGAGGAAA	0.298
GGGAGUGCUCCACUCCCUAGCAGAGCAGAGGGAAGUCUCUGCCAGGUACCCACGCCACAGGCCUCAGGAUGGCUUUUUGUCUGAGGGCCUCAUUAGGCCCAGACUGCUGC	0.345
GUGCUGCUACCUUGUAUGUUUACAUAAUGCUUUAGCCCAAGGACACAUCACCAACCCAUGGACUCGCAGACACCGGGGCUGGGUUUCUCUUUCCUCUUUUUGGAGAAAAG	0.215
GUUAAUGGCAGGCAGGCCCAUCUGGCUAUCCCGCAGUUGGGGAAACCCUUGCAAAGUAAACAGCUUUCCCAGGUUCCAAGGCCAGUUUUCACUGCUAAGGACCGGAAGGA	0.324
CAUUACUUCCUUUUAUUUUGCUCUUUAAAUAAUAAAAUUCAAGAAGCAUAUUCUAUGUGGAAUAGAUCUGUUUUUCCAUCUGUGUCCCAGAUUGUGACCCUAGACUUUCA	0.309
GGUGGUUGGGACUGGAGGUUGUAUAAGGUGUUCUUGGAAGGAAGGGGCAGGAGUUGGAAUUAGUUGGUCCCUACUGUCCCCCAUGAGGUUGUGAACCCCUCCCCCCAACU	1.32
UUCUAUUUCCGGCUCCAGGUACCUGAACUUGCUAUGUUGCGUUUUGUGGUAAAGGAUUAUAGCAGGAAAUCCCGAAAUAACUUUAUUGGCCAAUACACCCUACCUUGGAC	0.521

Series 4
Target: CCNE2, cyclin fold, Cln2 fusion (human)
Technique: yeast growth competition, sequencing
Sample: yeast
Setting: weak parent motif
Reference: not given
Direction: higher = stronger binding
Starting sequence: CABLES2 docking peptide (human); ICAKRSLCAAFSV; partner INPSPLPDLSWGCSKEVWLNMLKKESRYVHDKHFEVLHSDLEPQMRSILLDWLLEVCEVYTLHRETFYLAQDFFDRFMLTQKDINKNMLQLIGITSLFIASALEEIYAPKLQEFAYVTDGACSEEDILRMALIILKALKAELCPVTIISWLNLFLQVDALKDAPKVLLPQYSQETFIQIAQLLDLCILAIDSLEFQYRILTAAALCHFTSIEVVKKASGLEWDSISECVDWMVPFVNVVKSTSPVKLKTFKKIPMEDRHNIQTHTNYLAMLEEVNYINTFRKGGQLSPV
Substitution	normalised enrichment score
ACAKRSLCAAFSV [I1A]	0.478
ICAARSLCAAFSV [K4A]	0.37
ICAKRSLCAAFSA [V13A]	0.906
IAAKRSLCAAFSV [C2A]	-0.0705
ICAKRSLCAAASV [F11A]	0.217

Series 5
Target: ABI1, truncated, D143A, DHFR fusion (Arabidopsis thaliana)
Technique: DHFR PCA, deep sequencing
Sample: yeast
Setting: methotrexate growth selection, single substitutions
Added: (+)-ABA 200 µM
Reference: wild-type fitted maximum
Direction: higher = stronger binding
Starting sequence: PYL1, truncated, DHFR fusion (Arabidopsis thaliana); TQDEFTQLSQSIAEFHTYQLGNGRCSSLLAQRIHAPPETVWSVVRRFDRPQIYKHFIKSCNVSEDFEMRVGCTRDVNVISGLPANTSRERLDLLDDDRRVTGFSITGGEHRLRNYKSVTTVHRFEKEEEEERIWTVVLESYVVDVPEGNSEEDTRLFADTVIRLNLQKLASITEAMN
Substitution	relative binding score
Q7A	100%
H110A	16.4%
D96L	38.9%
I57E	-3.43%
F103P	1.56%
R49Y	90.4%
R99C	93.4%
I79A	100%
P50C	62%
T17R	91.4%
N114W	8.96%
E128A	103%
D75V	108%
T6G	97.4%
V44G	-4.26%

Some of these lines once more (series 5):
Substitution	relative binding score
T6G	97.4%
P50C	62%
F103P	1.56%
I57E	-3.43%
T17R	91.4%
R99C	93.4%
I79A	100%
H110A	16.4%
E128A	103%
Q7A	100%
